Measured values gathered from unrelated publications.
Each numbered part is a random draw from the data of one study; scales do not carry over between parts.

Set 1 — technique: RNAcompete; form: RNA; medium: in vitro; tested at: 20 nM; setting: 7-mer, probes averaged, single round; reference: mean of 7-mers; direction: higher = stronger binding; quantity: 7-mer Z-score
Target: PABPC1L2, full length, GST fusion (mouse, UniProt A0ABA7IW68)
Target sequence (chain): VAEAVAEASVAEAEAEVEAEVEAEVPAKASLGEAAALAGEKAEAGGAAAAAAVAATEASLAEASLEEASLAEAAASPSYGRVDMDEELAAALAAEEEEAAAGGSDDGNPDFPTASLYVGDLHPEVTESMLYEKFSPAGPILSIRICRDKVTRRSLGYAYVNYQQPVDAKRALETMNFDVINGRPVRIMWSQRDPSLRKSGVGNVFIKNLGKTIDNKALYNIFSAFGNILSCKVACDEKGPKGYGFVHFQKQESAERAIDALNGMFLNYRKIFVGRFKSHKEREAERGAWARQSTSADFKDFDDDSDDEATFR
GUGGCGA: -0.012
CGGGCGU: -0.0718
UUUCAUG: -0.389
AUACCGU: -0.193
CACUGUA: -0.195
UAAAUUU: 0.755
CUAACAA: 0.126
GGUACUG: 0.0243
CUCCAGG: -0.191
CCAAUUA: -0.0428
ACUUGGA: 0.0134
UGGUUUA: -0.36
UCUCCUA: -0.289
GCGAAAU: 0.037
GGUAAGG: 0.133
AUCUUGG: -0.122
CUGGGGC: 0.0787
CAUGCCG: -0.335

Set 2 — technique: protein binding microarray; form: double-stranded DNA, one strand shown; medium: in vitro; tested at: not given; reference: not given; direction: higher = stronger binding; quantity: E-score
Target: Histone acetyltransferase KAT6A, winged helix 2, GST fusion (KAT6A, Homo sapiens, UniProt Q92794, residues 85-181)
Setting: 8-mer, flanks averaged, mean of 2 arrays, mostly near background
Residues (chain): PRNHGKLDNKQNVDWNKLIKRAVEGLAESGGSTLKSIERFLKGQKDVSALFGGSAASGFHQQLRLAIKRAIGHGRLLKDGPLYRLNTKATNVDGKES
TCTTTACA: 0.1
CAGAGTGG: 0.0359
GCGTACGC: -0.035
CCCAAATC: 0.0591
CACCACCA: 0.049
AAACAACT: -0.149
CAAATGAC: -0.115
GATGCCAC: 0.0629
AGATCTCG: -0.0328
CCGGAAGA: 0.0818
GAAGAACA: 0.0696
CAATGAGG: -0.123
AGTACCAT: -0.109
AAATGAAC: -0.0869
AAGGCCCC: 0.00633
CTGCAAGC: 0.0593
ATAGCAAA: 0.144
AAGGACGG: -0.162
GGCTGTTA: 0.0817
CAATTCGC: 0.151
AAAGGCGG: 0.189
CGGGGATC: 0.0439
CCAAATAC: -0.0567
CCAAATGC: 0.087
ACTGAAGT: 0.12

Set 3 — technique: RNA Bind-n-Seq; form: RNA; medium: in vitro; tested at: 200 nM; setting: whole 134-nt RNA, ends assumed; added: 150 mM LiCl; reference: input library; direction: higher = stronger binding; quantity: log2 enrichment; each molecule: 7-deaza-guanosine replaces G
Target: Fragile X messenger ribonucleoprotein 1, C-terminal low-complexity region (Fmr1, Mus musculus, UniProt P35922)
Shared flanks, not repeated: GGGAGUUCUACAGUCCGACGAUC … UGGAAUUCUCGGGUGUCAAGG
CACAGACAACACGCACCCACACAGACACAGAGGGAAGGGGUUGGGAUGGGGACAGGGUGCAAAGCAGGGCGGGGUAGGACCCCAGCCCCU: -0.00244
CACAGACAACACGCACCCACACAGACACAGAGGGAAGGGGUUGGGAUGGGGACAGGGUGCACAGCAGGGCGGGGUAGGACCCCAGCCCCG: -0.129
UCCUGUGCUACACAUCGUAUGUACCGAAUCGGGGCCCCCCGGCCCCCCGGCCCCCCGGGGAAAGUAUUAUGUUACGCCGUUCGGAUCUGC: 0.782
AGUCCUGUGCUACACAUCGUAUGUACCGAAUCGGGGCCCCCGGCCCCCGGCCCCCGGAAAGUAUUAUGUUACGCCGUUCGGAUCUGCACU: -2.47
CAAGUCCUGUGCUACACAUCGUAUGUACCGAAUCGGAAAAGGGAAAAGGAAAAGGAAAGUAUUAUGUUACGCCGUUCGGAUCUGCACUUC: -0.872
UGGGAGGUGGAUUUUGUUUAUUUUUUUAGCUCAUUUCCAGGGGUGGGAAUUUUUUUUUGAUAUGUGUCAUGAAUAAAGUUGUUUUUGAAA: -0.691
UCAAGUCCUGUGCUACACAUCGUAUGUACCGAAUCGGGGAAAGGAAAGGAAAGGGAAAGUAUUAUGUUACGCCGUUCGGAUCUGCACUUC: -0.582
AAGUCCUGUGCUACACAUCGUAUGUACCGAAUCGGGCCCCGGCCCCGGGGCCCCGGAAAGUAUUAUGUUACGCCGUUCGGAUCUGCACUU: -2.64
GCAGGAUGUAAAAACAAAUGGAAAUGCUUCGGAUAGUGGCAGGGGUGGGGGUUGCUAAGGAAAGGGUGGGAUGGGAGUGGGUAAAGAGUU: 2.11
GCAGGAAGUAAAAACAAAUGGAAAUGCUUCGGAUACUGGCAGGGGUGGGGGUUGCUAAGGAAAGGGUGGGAUGGGAGUGGGUAAAGAGUU: 1.5
CAAGUCCUGUGCUACACAUCGUAUGUACCGAAUCGGGGAAAGGGGAAAGGGAAAGGAAAGUAUUAUGUUACGCCGUUCGGAUCUGCACUU: -0.663

Set 4 — technique: protein-binding microarray; form: double-stranded DNA, one strand shown; medium: in vitro; tested at: 2540 nM top; setting: 60-bp whole probe; added: salmon DNA 0.4 mg/ml; reference: random background probes; direction: higher = stronger binding; quantity: fitted relative affinity; shared flanks, not repeated: GCCTAGCAC … GTCTTGATTCGCTTGACGCTGCTG
Target: Interferon regulatory factor 3, full length, phosphomimetic (IRF3, Homo sapiens, UniProt Q14653, residues 1-427, S386D/S396D/S398D/S402D/T404D/S405D)
Residues (chain): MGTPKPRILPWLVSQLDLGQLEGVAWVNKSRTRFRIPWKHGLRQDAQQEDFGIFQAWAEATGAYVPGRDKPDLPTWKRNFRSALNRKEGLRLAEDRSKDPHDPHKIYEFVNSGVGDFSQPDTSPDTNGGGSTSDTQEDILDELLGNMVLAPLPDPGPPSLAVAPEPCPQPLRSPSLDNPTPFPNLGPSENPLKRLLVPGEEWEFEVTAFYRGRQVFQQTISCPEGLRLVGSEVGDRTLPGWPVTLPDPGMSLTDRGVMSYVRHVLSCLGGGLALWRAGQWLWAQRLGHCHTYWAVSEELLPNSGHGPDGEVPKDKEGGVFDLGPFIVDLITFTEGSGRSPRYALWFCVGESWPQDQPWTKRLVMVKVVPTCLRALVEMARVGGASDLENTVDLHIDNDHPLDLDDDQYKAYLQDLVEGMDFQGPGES
TCATGGATGTGTTTTAAACTGTGCTAG: -0.424 z-score
TTAGCTATCGGGACTGGGTTAGTGCTA: -0.3 z-score
TTAGGTTCCGATTTCGGTTAGTGCTAG: 5.69 z-score
GACTAACTGGGGTATCGAGACGTGCTA: -0.315 z-score
CACGGTTTCCTTTCCCTGACGTGCTAG: 9.32 z-score
GACGGTTTCGGTTCCGGTACGTGCTAG: 10.7 z-score
GACGATTTCAGACTGGAGTCGTGCTAG: 1.2 z-score
TTAGATTCCAGTCTCGATTAGTGCTAG: 3.15 z-score
GCTTCTCCTTGGAATAGATCGTGCTAG: 0.662 z-score
GACGAACTCAGACTGGAGACGTGCTAG: -0.061 z-score
TACAATTTGCTTTAGTCATTGTGCTAG: 0.178 z-score
GACGGACTGGGGACTGGGGACGTGCTA: -0.905 z-score
TAAGGTTTCCTACTGCTTTAGTGCTAG: 4.74 z-score
TTAGGTATGCTTTTCCTTTAGTGCTAG: 1.25 z-score
TCATCATTGCCTATTTTTCCGTGCTAG: 0.299 z-score
TCATGCTTGCGTCTGGGACTGTGCTAG: -0.827 z-score
TTAGGTTCCGGGTATCGGTTAGTGCTA: 1.97 z-score
TCAATTTTCATTTTCCAACTGTGCTAG: 4.54 z-score
GACAGTATCCTTATCCTGACGTGCTAG: 5.72 z-score
TTAGAAATGAGTTTCGATTAGTGCTAG: 2.99 z-score
CGAGACCTCGTCTCTATCAAAGTGCTA: -0.423 z-score
AGGCCTCTGGGATCCCAGTCGGTGCTA: -0.38 z-score
TTAGGTCTCCATTTCCTTTAGTGCTAG: 3.57 z-score
TCATTTATATGCTATGTAACTGTGCTA: 1.2 z-score

Set 5 — technique: competition protein-binding microarray; form: double-stranded DNA, one strand shown; medium: in vitro; tested at: 2 µM; added: Pho4 competitor, 0.05 µM; direction: higher = stronger binding; quantity: fluorescence intensity; shared flanks, not repeated: … GTCTTGATTCGCTTGACGCTGCTG
Target: Centromere-binding protein 1, full length, His-tagged (CBF1, Saccharomyces cerevisiae, UniProt P17106, residues 1-351)
UniProt P17106, sequence (whole entry, looked up): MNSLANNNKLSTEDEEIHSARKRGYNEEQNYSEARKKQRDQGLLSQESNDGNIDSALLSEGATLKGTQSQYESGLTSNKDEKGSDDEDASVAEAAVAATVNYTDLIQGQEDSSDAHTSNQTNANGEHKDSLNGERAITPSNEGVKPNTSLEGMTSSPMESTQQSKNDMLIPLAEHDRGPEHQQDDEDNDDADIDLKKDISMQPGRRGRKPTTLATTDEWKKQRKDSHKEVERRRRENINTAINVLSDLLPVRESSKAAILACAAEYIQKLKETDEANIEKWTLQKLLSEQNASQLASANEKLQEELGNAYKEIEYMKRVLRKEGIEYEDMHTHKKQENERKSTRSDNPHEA
Setting: whole 60-bp probe, lowest competitor level
AGAGTAGTCAGTCAACACGTTACCTCTGGTAACAGA: 122 a.u.
TGCGCAACAACTTGTAAGGTGGGTGTATGTCTAGAA: 72.3 a.u.
CTAAGCATATATCCTCACGTGACTCGGGCCACAGAC: 7760 a.u.
TGCGCAACAACTTGTGCAGTGGGTGTATGTCTAGAA: 67.6 a.u.
ACCTTTGGAACTCACCAGGTGATATATTCATCAGCA: 150 a.u.
AAATTACTAAGTTGTCACGTAACTTACCCCGTATGA: 118 a.u.
CGGGGTTAAGTTTGTTCAGTGGGTGGCTTGCAGCAG: 63.4 a.u.
CATACCCAACCTTGCAACGTGGGTGAAGATATTTGT: 98.7 a.u.
CGGGGTTAAGTTTGTCACACGACTTGCTTGCAGCAG: 117 a.u.
CATACCCAACCTTGTGGTGTGGGTGAAGATATTTGT: 77.2 a.u.
CATACCCAACCTTGTCACCATACTTAAGATATTTGT: 86.9 a.u.
CTAACGAAGGTTTGTCACCCTACTTACAAGCCAAGT: 62.2 a.u.
GATTGCATACCCGCACTCGTGCTTTCATGCTAATTG: 108 a.u.
ATATATCATTGGTTCCACGTTCACTTCCCTTATTAC: 107 a.u.
CGGGGTTAAGTTTGTTATGTGGGTGGCTTGCAGCAG: 74.4 a.u.
AAAGCGGTAATTTGTGTAGTGGGTGCAGATATCTAT: 75.6 a.u.
GTCTTGTCTCATTGTGCAGTGGGTGTCCCCACTTCA: 69.3 a.u.
CACTAGCTCGGTTTAGTTGTGACGGGTCTGCTGTAC: 60.3 a.u.
CTTCTGTAAATTTGCCCGGTGGGTGGACGCGCCCCG: 68.4 a.u.
CGGGAAAGTTAAAGTACCGTGATGGGGACCGCCCTT: 82.6 a.u.
CACCTCCCCCTAAATCTCGTGATGGGAGTTTCAAGT: 496 a.u.
AAATTACTAAGTTGACAGGTGGGTGACGCCGTATGA: 68.8 a.u.
CTAACGAAGGTTTTTCACGTGATCTACAAGCCAAGT: 7300 a.u.
GGATTTATAGTACCGTGCGTGCAAACTTAGACTGAA: 152 a.u.

A few entries again (set 1):
CUCCAGG: -0.191
GCGAAAU: 0.037
CGGGCGU: -0.0718
GUGGCGA: -0.012
ACUUGGA: 0.0134
AUCUUGG: -0.122
GGUACUG: 0.0243
CUGGGGC: 0.0787
UGGUUUA: -0.36
GGUAAGG: 0.133
AUACCGU: -0.193
